Published values from different studies.
Every numbered part comes from another study and shows a few of its results, in no order.

Block 1
Target: Sal-like protein 4, full length isoform A (SALL4, Homo sapiens, UniProt Q9UJQ4, residues 1-1053)
Chain of UniProt Q9UJQ4 (whole entry, looked up): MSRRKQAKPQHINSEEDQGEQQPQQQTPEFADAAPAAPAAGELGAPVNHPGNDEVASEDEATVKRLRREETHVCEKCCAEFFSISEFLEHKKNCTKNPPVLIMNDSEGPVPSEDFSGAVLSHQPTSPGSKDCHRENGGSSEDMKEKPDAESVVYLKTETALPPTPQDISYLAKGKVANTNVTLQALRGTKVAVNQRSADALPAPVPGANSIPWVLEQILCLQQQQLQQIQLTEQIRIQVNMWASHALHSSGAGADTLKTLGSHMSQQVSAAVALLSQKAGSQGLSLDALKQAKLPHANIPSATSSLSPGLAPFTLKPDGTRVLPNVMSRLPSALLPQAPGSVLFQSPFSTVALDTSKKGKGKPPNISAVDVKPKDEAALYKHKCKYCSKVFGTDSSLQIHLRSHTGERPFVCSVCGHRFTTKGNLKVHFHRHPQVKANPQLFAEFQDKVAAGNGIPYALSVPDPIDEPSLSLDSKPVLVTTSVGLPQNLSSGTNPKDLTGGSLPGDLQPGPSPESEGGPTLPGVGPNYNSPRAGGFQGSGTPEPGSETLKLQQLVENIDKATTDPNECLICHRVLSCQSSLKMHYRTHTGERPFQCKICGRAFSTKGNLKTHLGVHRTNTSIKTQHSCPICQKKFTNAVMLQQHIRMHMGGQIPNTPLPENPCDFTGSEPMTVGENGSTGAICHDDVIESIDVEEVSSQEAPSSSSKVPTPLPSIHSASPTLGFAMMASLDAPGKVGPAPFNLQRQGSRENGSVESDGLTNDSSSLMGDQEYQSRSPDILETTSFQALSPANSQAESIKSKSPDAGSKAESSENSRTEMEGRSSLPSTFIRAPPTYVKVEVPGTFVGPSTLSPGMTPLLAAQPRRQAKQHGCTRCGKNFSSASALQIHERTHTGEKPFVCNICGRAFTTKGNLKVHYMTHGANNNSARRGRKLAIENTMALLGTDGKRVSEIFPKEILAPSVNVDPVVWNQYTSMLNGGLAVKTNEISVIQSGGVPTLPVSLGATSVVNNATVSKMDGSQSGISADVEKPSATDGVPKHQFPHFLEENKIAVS
Technique: universal PBM
Molecule type: double-stranded DNA, one strand shown
Matrix: in vitro
Tested at: 600 nM
Setting: 8-mer, flanks averaged, mean of replicates
Reading: higher = stronger binding
Endpoint: E-score
CCGAGAAA: 0.0877
CCCTGCAA: -0.0412
CCCGCGAA: -0.0916
TACTGCCA: -0.015
CCCTTTCG: 0.022

Block 2
Target: Histone acetyltransferase KAT6A, winged helix 2, GST fusion (KAT6A, Homo sapiens, UniProt Q92794, residues 85-181)
Technique: protein binding microarray
Molecule type: double-stranded DNA, one strand shown
Matrix: in vitro
Tested at: not given
Setting: 8-mer, flanks averaged, mean of 2 arrays, mostly near background
Baseline: not given
Reading: higher = stronger binding
Endpoint: E-score
Residues (chain): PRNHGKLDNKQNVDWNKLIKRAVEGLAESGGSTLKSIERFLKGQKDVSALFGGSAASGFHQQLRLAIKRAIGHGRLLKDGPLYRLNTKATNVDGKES
GTTTCGAA: 0.0937
GCTTGGGA: 0.0683
AGGGGCGG: 0.19
CCATGGCG: 0.147
CACTCTGG: 0.0688

Block 3
Target: Interferon regulatory factor 5, full length, phosphomimetic (IRF5, Homo sapiens, UniProt Q13568-2, residues 1-514, K96S/S451D/S453D/S456D/S462D)
Technique: protein-binding microarray
Molecule type: double-stranded DNA, one strand shown
Matrix: in vitro
Tested at: 250 nM
Setting: 60-bp whole probe
Together with: salmon DNA 0.4 mg/ml
Baseline: random background probes
Reading: higher = stronger binding
Endpoint: log fluorescence
All sequences stand within: GCCTAGCAC … GTCTTGATTCGCTTGACGCTGCTG
GACGGTATCGGCTATCGGGACGTGCTA: 2.95 z-score
TTAGGACTGGGGACCGGGTTAGTGCTA: -0.3 z-score
TTAGGTATCTTACTGCTTTAGTGCTAG: 0.0333 z-score
GAAGTTCTAAATATCTTTGTGTGCTAG: 0.0703 z-score
TTCCTTATTGCTTCCTCTTTGTGCTAG: 1.41 z-score
GACGGTATTGACTTTCGGGACGTGCTA: 5.66 z-score
TTAGGACTGGACTTTCAGTTAGTGCTA: 2.78 z-score

Mixed results
PhoQ, residues 284 288 289 292 302 303 TNASYF
fold induction (PhoP, residues 12 14 15 18 19 LHSVW (Escherichia coli, UniProt P23836); Sort-seq, measured: YFP reporter; E. coli; PhoQ-PhoP variant library, together with: 10 µM Mg2+; baseline: high Mg2+ state, higher = stronger signaling): 4.29
